Literature values as cited in several papers.
Compare with care: the assays were run in different laboratories. Numbers after ± are the reported error. ≈ marks a conversion by molar mass, not a printed value.
Sequence of UniProt Q9H093 (whole entry, looked up): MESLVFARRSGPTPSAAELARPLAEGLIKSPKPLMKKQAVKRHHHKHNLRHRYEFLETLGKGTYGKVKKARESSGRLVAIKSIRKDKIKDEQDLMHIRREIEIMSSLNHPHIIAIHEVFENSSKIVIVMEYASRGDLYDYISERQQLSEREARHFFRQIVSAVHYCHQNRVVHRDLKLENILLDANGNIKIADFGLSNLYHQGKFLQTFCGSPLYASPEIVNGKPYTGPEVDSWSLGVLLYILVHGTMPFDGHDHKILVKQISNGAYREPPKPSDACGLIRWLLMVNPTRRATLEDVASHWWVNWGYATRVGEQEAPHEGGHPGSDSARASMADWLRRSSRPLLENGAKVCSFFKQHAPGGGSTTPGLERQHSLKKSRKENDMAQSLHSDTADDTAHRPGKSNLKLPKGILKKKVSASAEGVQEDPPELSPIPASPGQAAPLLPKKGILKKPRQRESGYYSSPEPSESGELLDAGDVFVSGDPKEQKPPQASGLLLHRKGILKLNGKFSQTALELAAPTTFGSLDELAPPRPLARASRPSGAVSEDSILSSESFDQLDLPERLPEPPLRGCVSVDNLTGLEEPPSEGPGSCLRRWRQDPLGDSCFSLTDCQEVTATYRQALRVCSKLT

CC[C@@H](C(=O)Nc1ccc(C(N)=O)c(F)c1)n1cc(OC)c(-c2cc(Cl)ccc2-n2cc(C(F)(F)F)nn2)cc1=O — fraction excreted unchanged (feces; concentration not given): 28%
CCCCOC(=O)c1ccc(O)cc1 — logD (pH 7.4): 3.51
OC(Cn1cncn1)(Cn1cncn1)c1ccc(F)cc1F — AUC increase (perpetrator, item: (R)-warfarin; human; dose not given; relative to: without compound): 107%
O=C(c1cccnc1-c1ccncc1)N1CCC(O)(Cc2ccccc2)CC1 — overall exposure (human; dose not given, fed vs fasted): no effect
COc1ccc(CN2C3CC2CN(c2ccc(-c4cc(OCC(C)(C)O)cn5ncc(C#N)c45)cn2)C3)cn1 — patients with dose reduction (RET-positive NSCLC patients; dose not given): 41%
Nc1nc(=O)n([C@@H]2CS[C@H](CO)O2)cc1F — bioavailability (mouse; 600 mg/kg): 85%
Cc1cc(Nc2ccc(S(F)(F)(F)(F)F)cc2)n2ncnc2n1 — intrinsic clearance (mouse liver microsomes): < 6 µL/min/mg
COc1ccc2c(c1)c(CC(=O)O)c(C)n2C(=O)c1ccc(Cl)cc1 — renal clearance (human): 0.195 mL/min/kg
CCN1CCN(Cc2ccc(Nc3ncc(F)c(-c4cc(F)c5nc(C)n(C(C)C)c5c4)n3)nc2)CC1 — parent share of plasma radioactivity (rat, plasma; dose not given): ~79%
COc1cc2c(Oc3ccc4[nH]c(C)cc4c3F)ccnc2cc1OCC1(N)CC1 — AUC(0-t) (human, fasting; 5 mg): 377 ± 134 ng·h/mL
Cc1cc(C)c(CNC(=O)c2cc(Cl)c3c(c2C)O[C@@](C)([C@H]2CC[C@H](N(C)C)CC2)O3)c(=O)[nH]1 — serious TEAE incidence (relapsed/refractory ATLL patients; 200 mg/day, without fluconazole): 8.3%
Cc1ccsc1C(=CCCN1CCC[C@@H](C(=O)O)C1)c1sccc1C — protective index (mouse; i.p., subcutaneous PTZ seizure test): 30
CCCCCC(CCC)C(=O)O (stereo not drawn) — EC10 (pericardial and yolk oedema; zebrafish embryo; nominal concentration): 10 µM
CO[C@H]1C[C@@H]2CC[C@@H](C)[C@@](O)(O2)C(=O)C(=O)N2CCCC[C@H]2C(=O)O[C@H]([C@H](C)C[C@@H]2CC[C@@H](OCCO)[C@H](OC)C2)CC(=O)[C@H](C)/C=C(\C)[C@@H](O)[C@@H](OC)C(=O)[C@H](C)C[C@H](C)/C=C/C=C/C=C/1C — apparent clearance (CL/F) (plasma; population PK two-compartment): 18.8 L/h
C=CC(=O)NC1CCN(c2ncc3ncnc(Nc4ccc(Oc5ccc6c(c5)ncn6C)c(C)c4)c3n2)CC1 — oxidation contribution to metabolism (in vitro): 48 to 62%
CCCCC(C)C(=O)O (stereo not drawn) — EC10 (small eyes; zebrafish embryo; nominal concentration): > 1000 µM
O=C(O)CN(CCN(CC(=O)O)CC(=O)O)CCN(CC(=O)O)CC(=O)O — protonation constant (log) (pH-potentiometry, item: logK2H; 0.1 M NaClO4; 25 °C): 8.63
Nc1ccn([C@@H]2CS[C@H](CO)O2)c(=O)n1 — oral bioavailability (rat; 2 mg/kg): 80%
CNC(=O)c1ccc(Nc2ncc(C(F)(F)F)c(NCc3nccnc3N(C)S(C)(=O)=O)n2)cc1 — patients with increased bilirubin (patients with KRAS mutant NSCLC; dose not given, treatment-emergent, any grade; relative to: patients): 24%
Nc1ccn([C@@H]2O[C@H](CO)[C@@H](O)C2(F)F)c(=O)n1 — pneumonia incidence (metastatic pancreatic cancer patients; dose not given): 1%
CN(C)C(=N)N=C(N)N — rate constant k21 (healthy human subjects): 0.0104 min⁻¹
COc1cc(N2CCC(N3CCN(C)CC3)CC2)ccc1Nc1ncc(Cl)c(Nc2ccccc2P(C)(C)=O)n1 — AUC(0-24) at steady state (patients with cancer, plasma; dose not given, geometric mean): 16200 ng·h/mL
CC(=O)c1c(C)c2cnc(Nc3ccc(N4CCNCC4)cn3)nc2n(C2CCCC2)c1=O — AUC(0-24) (human; 125 mg, single dose): 1730 ng·h/mL
CC(C)(C(=O)O)c1ccc(C(O)CCCN2CCC(C(O)(c3ccccc3)c3ccccc3)CC2)cc1 (stereo not drawn) — AUC(0-6 h) (healthy volunteers; dose not given, reduced P-gp activity category): > 218 ng·h/mL
CNC(C)C1CCC(N)C(OC2C(N)CC(N)C(OC3OCC(C)(O)C(NC)C3O)C2O)O1 (stereo not drawn) — MIC (Enterobacter cloacae; clinical isolate RKI-No_308/13): 2 µg/mL (≈ 4.19 µM)
CN(C)C(=O)c1cc2cnc(Nc3ccc(N4CCNCC4)cn3)nc2n1C1CCCC1 — adverse event incidence (item: nausea; advanced solid tumour or lymphoma patients; dose not given, 3 weeks on 1 week off, any grade; relative to: patients): 52.2%
NC12CNCCNCC(N)(CNCCNC1)CNCCNC2 — pKa1 (ammonium group deprotonation): ~6.4
Nc1nc2c(ncn2COCCO)c(=O)[nH]1 — oral bioavailability (rat): 2.18%
CO[C@]1(C(=O)N[C@@H](C)c2ccc(-n3cc(F)cn3)nc2)CC[C@H](c2nc(C)cc(Nc3cc(C)[nH]n3)n2)CC1 — terminal half-life (human; administered alone): 14.6 h
c1ccc2c(c1)ccc1c3ccccc3ccc21 — logKow (slow stirring): 5.95
COc1ccc([C@@H]2Sc3ccccc3N(CCN(C)C)C(=O)[C@@H]2OC(C)=O)cc1 — plasma clearance (rat): 52.5 mL/min/kg
CO[C@@H](C)Cn1c(=O)n(C)c2cnc3ccc(-c4cncc(C(C)(C)O)c4)cc3c21 — AUC(0-tau) (human; 325 mg once daily, steady state, day 15): 5540 ng·h/mL
Cc1ccc([C@@H]2O[C@H](CO)[C@@H](O)[C@H](O)[C@H]2O)cc1Cc1ccc(-c2ccc(F)cc2)s1 — AUC(0-24) (human, preserved kidney function; 300 mg, steady state, mean): 19300 ng·h/mL
Cc1ccc(NC(=O)c2ccc(CN3CCN(C)CC3)cc2)cc1Nc1nccc(-c2cncc(-c3oncc3C)c2)n1 — total brain concentration (mouse; oral gavage, dose not given, 7 days): > 1 µM
CN[C@@H](C)C(=O)N[C@H]1CN(S(=O)(=O)c2cccc(S(=O)(=O)N3CC[C@H]4CC[C@@H](C(=O)NC(c5ccccc5)c5ccccc5)N4C(=O)[C@@H](NC(=O)[C@H](C)NC)C3)c2)CC[C@H]2CC[C@@H](C(=O)NC(c3ccccc3)c3ccccc3)N2C1=O — TEAE abdominal pain incidence (advanced solid tumour patients; dose not given, monotherapy): 13%
Nc1nc(O)c2ncn(COC(CO)CO)c2n1 — oral bioavailability (rat; 10 mg/kg): 3.6%
C[Si](C)(C)O[Si](C)(C)C — log KAW (28 °C): 0.27
N#C[C@@]1(c2ccc3c(N)ncnn23)O[C@H](CO)[C@@H](O)[C@H]1O — oral bioavailability (rat): 33%
O=C1Nc2c(C(F)(F)F)cccc2[C@@]1(c1ccc(O)cc1)c1ccc(OC(F)(F)F)cc1 — tolerated dose (mouse; oral): > 150 mg/kg
CC1(C)S[C@@H]2[C@H](NC(=O)[C@H](N)c3ccccc3)C(=O)N2[C@H]1C(=O)O — MIC (Escherichia coli; clinical isolate RKI-No_330/16): > 16 µg/mL
Nc1cc(C(F)(F)F)c(-c2nc(N3CCOCC3)nc(N3CCOCC3)n2)cn1 — remaining activity (NUAK family SNF1-like kinase 2 (NUAK2, Homo sapiens, UniProt Q9H093); enzyme activity; 10 µM; relative to: untreated): 100%
CC1(C)CCC(CN2CCN(c3ccc(C(=O)NS(=O)(=O)c4ccc(NCC5CCOCC5)c([N+](=O)[O-])c4)c(Oc4cnc5[nH]ccc5c4)c3)CC2)=C(c2ccc(Cl)cc2)C1 — AUC(0-24) increase (human; dose not given, with: triazole antifungals (CYP3A inhibitors); relative to: without triazole): 8.8 fold
CNC(=O)c1c(C)oc2cc(Oc3ncnc4cc(OC)c(OC)cc34)ccc12 — dose recovered unchanged (urine; 5 mg radiolabelled, time not given): 0.5%
Cc1cc(-c2nccc3c2ccn3CC(=O)Nc2ccc(-c3cnccn3)cn2)ccn1 — Cmax (item: total drug; rat; 100 mg/kg/day, 14-day dose-range finding): 14.6 µM
OCc1cc(C(O)CNCCCCCCOCCCCc2ccccc2)ccc1O (stereo not drawn) — lung deposited fraction (human; inhaled): 0.2

Excerpt of the above:
Cc1cc(-c2nccc3c2ccn3CC(=O)Nc2ccc(-c3cnccn3)cn2)ccn1 — Cmax (item: total drug; rat; 100 mg/kg/day, 14-day dose-range finding): 14.6 µM
CO[C@@H](C)Cn1c(=O)n(C)c2cnc3ccc(-c4cncc(C(C)(C)O)c4)cc3c21 — AUC(0-tau) (human; 325 mg once daily, steady state, day 15): 5540 ng·h/mL
COc1ccc2c(c1)c(CC(=O)O)c(C)n2C(=O)c1ccc(Cl)cc1 — renal clearance (human): 0.195 mL/min/kg
CN(C)C(=O)c1cc2cnc(Nc3ccc(N4CCNCC4)cn3)nc2n1C1CCCC1 — adverse event incidence (item: nausea; advanced solid tumour or lymphoma patients; dose not given, 3 weeks on 1 week off, any grade; relative to: patients): 52.2%
